Assay results of several laboratories.
Lines come from different studies, so protocols differ. Several values in a cell are separate wells, animals, samples, runs or records. Numbers after ± are the reported error.

With `CCN(CC)c1ccc(C=NNC(=O)CSc2nc3ccccc3c(=O)n2Cc2ccc(S(N)(=O)=O)cc2)c(O)c1` the CC50 was over 100 µM (A498; NCI five-dose screen).
Under “cells in G1 phase”, `N.N.[Cl][Pt][Cl]` is recorded as 55% (NCI-H82; PI flow cytometry; 10 µM, 24 h).
`CO[C@H]1/C=C\C=C(/C)C(=O)NC2=CC(=O)C(NCCN(C)C)=C(C[C@@H](C)C[C@H](OC)[C@H](O)[C@@H](C)/C=C(\C)[C@@H]1OC(N)=O)C2=O` gave an EC50 of 4.3 µM (iPSC-derived cardiomyocytes; concentration-response curve, item: MyBP-C protein level; 24 h).
For `Cc1cnc2ccc3c(nc(N)n3C)c2n1`, the plating efficiency was 45% (BALB/c 3T3; colony formation; 10 µM).
`COc1ccc(OC)c(N2C(=O)NC(=O)/C(=C\c3ccc([N+](=O)[O-])s3)C2=O)c1` gave an efficacy of 29% (C127 LDR GFP reporter cells; silenced GFP reporter induction, activator, high-content imaging; retest, two-run mean).
For `C/C=C(/C)C(=O)O[C@H]1C(C)=C2[C@H]([C@@H]1OC(=O)CCCCCCC)[C@@](C)(OC(C)=O)C[C@H](OC(=O)CCC)[C@@]1(O)[C@H]2OC(=O)[C@@]1(C)O`, “normalized enrichment score” read -1.11 (HEK-293T; RNA-seq GSEA, item: Hallmark coagulation; 500 nM, 6 h; direction not given).
The GI50 of `Nc1ncc(-c2nc(N3CCOCC3)nc(N3CCOCC3)n2)c(C(F)F)n1` is reported as 0.118 µM (SW948; 72 h).
`CC[C@H](C)[C@@H]([C@@H](CC(=O)N1CCC[C@H]1[C@H](OC)[C@@H](C)C(=O)N[C@@H](Cc1ccccc1)C(=O)O)OC)N(C)C(=O)[C@@H](NC(=O)[C@H](C(C)C)N(C)C(=O)CCSSC[C@H](NC(=O)[C@@H](NC(=O)CNC(=O)[C@H](CCC(=O)O)NC(=O)[C@H](CC(=O)O)NC(=O)[C@H](C)NC(=O)[C@H](CC(=O)O)NC(=O)[C@@H](NC(=O)[C@H](CC(C)C)NC(=O)[C@H](CC(C)C)NC(=O)[C@H](C)NC(=O)[C@H](CC(C)C)NC(=O)[C@H](CCCC(=O)O)NC(=O)[C@H](CC(C)C)NC(=O)[C@H](CC(C)C)NC(=O)[C@H](CC(C)C)NC(=O)[C@H](CC(C)C)NC(=O)[C@@H]1CCCN1C(=O)[C@@H](NC(=O)[C@@H](NC(=O)[C@H](Cc1ccccc1)NC(=O)[C@H](CC(C)C)NC(=O)[C@H](Cc1c[nH]c2ccccc12)NC(=O)[C@H](CC(C(=O)O)C(=O)O)NC(=O)[C@H](C)NC(=O)[C@H](Cc1ccc(O)cc1)NC(=O)[C@H](CCCNC(=N)N)NC(=O)[C@H](C)NC(=O)[C@H](Cc1c[nH]c2ccccc12)NC(=O)[C@H](Cc1ccc(O)cc1)NC(=O)[C@@H](NC(=O)[C@@H]1CCCN1C(=O)[C@H](CC(N)=O)NC(=O)[C@H](CCC(N)=O)NC(=O)[C@H](CCC(=O)O)NC(=O)[C@H](C)NC(=O)[C@H](C)N)[C@@H](C)CC)[C@@H](C)O)[C@@H](C)O)C(C)C)[C@@H](C)O)C(=O)NCC(N)=O)C(C)C` gave a cell killing of about 27% (HeLa; MTT; 40 nM, 72 h, 2 h low pH treatment).
The EC50 of `COC(=O)/C(C)=C\C[C@@]12OC(C)(C)[C@@H]3C[C@@H](C=C4C(=O)c5c(O)c6c(c(CC=C(C)C)c5O[C@]431)O[C@](C)(CCC=C(C)C)C=C6)C2=O` is reported as 7.7 µM (iPSC-derived cardiomyocytes; concentration-response curve, item: MyBP-C protein level; 24 h).
`O=C(Nc1ccc2[nH]nc(-c3ccncc3)c2c1)[C@@H]1CCN(CC(=O)N2CCN(c3ccc(-c4ncccn4)cc3)CC2)C1` gave a PI-positive cells of 4.42 count and 3.17 count and 2.08 count (HCT116; IncuCyte; concentration not given, 4 (unit not given)).
Under “G1 phase cells”, `O=S(=O)(c1ccc(O)cc1)c1ccc(O)cc1` is recorded as 75.1 ± 5.38% (HepG2 spheroids; Hoechst flow cytometry; 1 µM, 96 h).
`CN1CCN(C2(CNC3CCN(c4cccc(-c5cc6cc(F)ccc6[nH]5)c4)CC3)CCC2)CC1` has a CC50 of 6.86 µM (A498).
The CC50 of `Cn1cncc1C1=CN(c2ncnc3[nH]cnc23)CCS1` is reported as over 200 µM (NCI-H226; lung cancer).
With `O=C1N(Cc2ccccc2Cl)c2ccccc2C12NN=C(c1ccccc1)S2` (stereo not drawn) the fold change was 1.6 (MDA-MB-468; gene expression array, item: RPL7L1 mRNA; 10 µM, 12 h; reference: untreated, down).
With `O=S(=O)(Nc1ccc(-c2nc3cc(NS(=O)(=O)c4cccc(C(F)(F)F)c4)ccc3o2)cc1)c1cccc(C(F)(F)F)c1` the EC50 was 15 µM (DLD-1 colorectal cancer; 48 h).
For `Cc1n[nH]c2ccc(-c3cncc(OC[C@@H](N)Cc4c[nH]c5ccccc45)c3)cc12`, the cell growth was 78.6% (SNU-1040; 330 nM, 3 days, 100% DMSO; reference: vehicle).
`C[C@@]1(C(=O)O)CC[C@]2(C)CC[C@]3(C)C4=CC(=O)c5c(cc(O)c(O)c5C=O)[C@]4(C)CC[C@@]3(C)[C@@H]2C1` has an inhibition of 92.5% (BT-12; cell viability, MTT; 10 µM, 72 h).
`COc1cc(CCC[P+](c2ccccc2)(c2ccccc2)c2ccccc2)c(OC)c2c1OCO2.[I-]` gave an LC50 of over -4 log M (SR; SRB).
Under “G2 phase cells”, `Oc1ccc(C(c2ccc(O)cc2)(C(F)(F)F)C(F)(F)F)cc1` is recorded as 16.3 ± 6.73% (HepG2 spheroids; Hoechst flow cytometry; 1 µM, 96 h).
`CC[C@]1(O)C[C@H]2CN(CCc3c([nH]c4ccccc34)[C@@](C(=O)OC)(c3cc4c(cc3OC)N(C=O)[C@H]3[C@@](O)(C(=O)OC)[C@H](OC(C)=O)[C@]5(CC)C=CCN6CC[C@]43[C@@H]65)C2)C1` has an IC50 of 0.0501 µM (Plasmodium falciparum; W2).
With `N#Cc1c(N)nc(SCC(N)=O)c(C#N)c1-c1ccc(OCC2CC2)cc1` the ERK1/2 activation was 16 % above basal (H9c2; agonist; concentration not given, 5 min).
For `COc1ccc([C@H]2c3[nH]c4ccc(Cl)cc4c3CCN2C(=O)Oc2ccc(Cl)cc2)cc1`, the inhibition was 25% (human dermal fibroblasts with PBMC; cytokine secretion, item: IL-8; 0.01 µM, 48 h).
`Cc1c(O)c(O)cc2c1CC=C1[C@@]2(C)CC[C@@]2(C)[C@@H]3C[C@](C)(C(=O)O)CC[C@]3(C)CC[C@]12C` gave an EC50 of 5.9 µM (iPSC-derived cardiomyocytes; concentration-response curve, item: MyBP-C protein level; 24 h).
`Nc1ncnc2c1ncn2[C@@H]1O[C@@H]2COP(=O)(O)O[C@H]3[C@@H](O)[C@H](n4cnc5c(=O)[nH]cnc54)O[C@@H]3COP(=O)(O)O[C@H]2[C@H]1O`: “pathway fold enrichment” 2.47 (HFF-1; RNA sequencing, item: Axon guidance; downregulated pathway; reference: Zika virus alone).
The IC50 of `NC(=Nc1ccccc1)NC(=O)c1nc(Cl)c(N)nc1N` is reported as 6.31 µM (Plasmodium falciparum; W2).
With `COc1c(CCC[P+](c2ccccc2)(c2ccccc2)c2ccccc2)cc2c(c1OC)OCO2.[I-]` the TGI was -4.37 log M (NCI-H226; SRB).
The IC50 of `COc1c(C)c2c(c(O)c1C/C=C(\C)CCC(=O)O)C(=O)OC2` is reported as 1.66 µM (SNB-75; cell proliferation; brain cancer).
With `Cc1nn(-c2nc3ccc(Cl)c(Cl)c3[nH]2)c(O)c1C1OC(=O)c2ccccc21` (stereo not drawn) the viability was 111% and 102% and 108% and 98.2% (RAW-ISG; CCK-8; 1 µM).
`COc1ccc2c(c1)[nH]c1c(C)nccc12` has a DNA methylation of 89.8% (DU-145; bisulfite pyrosequencing, item: RASSF1A promoter CpG site 30; 10 µM, 16 h).
Under “fitted bottom MyBP-C level”, `C[C@]12CC[C@H](O)C[C@H]1CC[C@@H]1[C@@H]2CC[C@]2(C)[C@@H](C3=CC(=O)OC3)[C@@H](O)C[C@]12O` is recorded as 0% (iPSC-derived cardiomyocytes; concentration-response fit; concentration not given; reference: vehicle).
Under “G1 phase cells”, `CC(c1ccccc1)(c1ccc(O)cc1)c1ccc(O)cc1` is recorded as 71 ± 1.41% (HepG2 spheroids; Hoechst flow cytometry; 1 µM, 24 h).
`CC1=C(O)C(=O)C=C2C1=CC=C1[C@@]2(C)CC[C@@]2(C)[C@@H]3C[C@](C)(C(=O)O)CC[C@]3(C)CC[C@]12C` gave an EC50 of 6 µM (iPSC-derived cardiomyocytes; concentration-response curve, item: MyBP-C protein level; 24 h).
`Oc1cc(Cl)ccc1Oc1ccc(Cl)cc1Cl` — result for “point of departure”: 18.6 µM (HepG2; high content imaging, item: cell count; 24 h, distribution mode 2).
With `CC(C)N1CCC(NC2CCN(c3cccc(-c4cc5cc(F)ccc5[nH]4)c3)CC2)CC1` the CC50 was 5.78 µM (A498).
The resistance factor of `N.N.[Cl][Pt][Cl]` is reported as about 37 fold (A2780cis; MTT; reference: A2780cis over A2780 IC50).
Under viability, `C=C[C@@]12CN(C)[C@H]3C[C@]14C(=Nc1ccccc14)[C@@H]1C[C@@H]2[C@@H]3CO1` is recorded as “no effect” (Vero; CCK-8; up to 100 µM, 24 h).

Excerpt of the above:
Under “fitted bottom MyBP-C level”, `C[C@]12CC[C@H](O)C[C@H]1CC[C@@H]1[C@@H]2CC[C@]2(C)[C@@H](C3=CC(=O)OC3)[C@@H](O)C[C@]12O` is recorded as 0% (iPSC-derived cardiomyocytes; concentration-response fit; concentration not given; reference: vehicle).
Under “G1 phase cells”, `CC(c1ccccc1)(c1ccc(O)cc1)c1ccc(O)cc1` is recorded as 71 ± 1.41% (HepG2 spheroids; Hoechst flow cytometry; 1 µM, 24 h).
`CC1=C(O)C(=O)C=C2C1=CC=C1[C@@]2(C)CC[C@@]2(C)[C@@H]3C[C@](C)(C(=O)O)CC[C@]3(C)CC[C@]12C` gave an EC50 of 6 µM (iPSC-derived cardiomyocytes; concentration-response curve, item: MyBP-C protein level; 24 h).
`Oc1cc(Cl)ccc1Oc1ccc(Cl)cc1Cl` — result for “point of departure”: 18.6 µM (HepG2; high content imaging, item: cell count; 24 h, distribution mode 2).
